Published values pooled from the literature.
A part holds a random share of what one study measured.

Study 1
Target: Histone acetyltransferase KAT6A, winged helix 1, GST fusion (KAT6A, Homo sapiens, UniProt Q92794, residues 1-85)
Technique: protein binding microarray
Molecule type: double-stranded DNA, one strand shown
Sample: in vitro
Tested at: not given
Setting: 8-mer, flanks averaged, mean of 2 arrays, mostly near background
Baseline: not given
Direction: higher = stronger binding
Endpoint: E-score
Construct (chain): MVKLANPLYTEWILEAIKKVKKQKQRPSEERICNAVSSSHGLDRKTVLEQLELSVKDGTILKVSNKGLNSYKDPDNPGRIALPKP
ATTGTAGA: -0.176
GGATTCTA: -0.188
CTGTACTA: -0.0518
GCACAGTA: -0.0112
AAGCCCCA: -0.341
AACGGTGA: 0.117
GACCCCGA: -0.00203
ATCTTTTC: -0.11
CAGGTATA: -0.00214
CGGGGGCC: 0.299
GACTCGCA: 0.0244
AACAGAAG: -0.0811
ATGCCATA: -0.141
CAGTACCA: -0.224
CCCCCTGC: 0.0362
CCCAGTTC: -0.248
CGCACTTA: 0.127
ACTTGTCC: 0.104

Study 2
Target: Interferon regulatory factor 7, full length, phosphomimetic (IRF7, Homo sapiens, UniProt Q92985, residues 1-503, S101K/S471D/S472D/S475D/S476D/S477D/S483D/S484D/S487D)
Chain of UniProt Q92985 (whole entry, unmodified, looked up): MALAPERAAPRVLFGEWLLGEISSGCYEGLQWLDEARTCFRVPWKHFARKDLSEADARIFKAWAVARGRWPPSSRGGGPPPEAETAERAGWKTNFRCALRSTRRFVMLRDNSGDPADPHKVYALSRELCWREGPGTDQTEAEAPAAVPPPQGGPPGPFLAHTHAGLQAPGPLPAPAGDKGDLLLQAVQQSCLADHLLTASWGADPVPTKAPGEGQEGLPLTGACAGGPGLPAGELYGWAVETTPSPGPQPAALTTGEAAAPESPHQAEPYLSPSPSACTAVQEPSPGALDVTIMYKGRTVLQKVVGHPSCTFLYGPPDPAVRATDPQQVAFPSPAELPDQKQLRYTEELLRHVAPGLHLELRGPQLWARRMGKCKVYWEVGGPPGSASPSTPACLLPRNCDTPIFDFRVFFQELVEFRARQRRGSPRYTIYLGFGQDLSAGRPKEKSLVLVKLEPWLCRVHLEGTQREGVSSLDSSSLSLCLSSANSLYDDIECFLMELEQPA
Technique: protein-binding microarray
Molecule type: double-stranded DNA, one strand shown
Sample: in vitro
Tested at: 250 nM
Setting: 60-bp whole probe
Added: salmon DNA 0.4 mg/ml
Baseline: random background probes
Direction: higher = stronger binding
Endpoint: log fluorescence
Shared flanks, not repeated: GCCTAGCAC … GTCTTGATTCGCTTGACGCTGCTG
TTAGATTTCGGGTTTCGGTTAGTGCTA: 7.48 z-score
TCAGATATCAGTATCGATTAGTGCTAG: 0.968 z-score
TTAGGTCTCTGTCTCGGTTAGTGCTAG: 0.8 z-score
TTAGGTATCCTTTTCCATTAGTGCTAG: 1.74 z-score
GACGGACTGGGTTTCTGGACGTGCTAG: -0.0259 z-score
TTAGGTACCCTTTTCCTTTAGTGCTAG: 2.9 z-score
TTGGGTCTCGGTATCGGTTAGTGCTAG: 2.48 z-score
GAAGGTTTCCTTATCCTGACGTGCTAG: 2.85 z-score
TTAGAACTCGGGACTGGATTAGTGCTA: -0.432 z-score
GACGGTCTCCAACTGCTGACGTGCTAG: -0.216 z-score
TTAGGACTGGGCATCGGTTAGTGCTAG: -0.121 z-score
TTAGATTTCAGCTCCGATTAGTGCTAG: 0.482 z-score
GGGCGGGTGCCAACTCTTAGGTGCTAG: -1.48 z-score
TCAATTCCAGGGTTTTATACTGTGCTA: 0.586 z-score
GACGGTTTCCTTAGCCTGACGTGCTAG: 0.943 z-score
TCAGTCCTCACTTCCTTACTGTGCTAG: 1.23 z-score

Study 3
Substance: PhoQ, residues 284 288 289 292 302 303 TSTLRA
Technique: Sort-seq
Measured: YFP reporter
Sample: E. coli
Setting: PhoQ-PhoP variant library
Added: 10 µM Mg2+
Baseline: high Mg2+ state
Direction: higher = stronger signaling
Endpoint: fold induction
PhoP, residues 12 14 15 18 19 VGHWL (Escherichia coli, UniProt P23836): 2.53
PhoP, residues 12 14 15 18 19 NFFVT (Escherichia coli, UniProt P23836): 14.8
PhoP, residues 12 14 15 18 19 TPWTL (Escherichia coli, UniProt P23836): 8.46

Study 4
Target: RNA binding protein fox-1 homolog 2, RRM domain, GST-SBP tag (RBFOX2, Homo sapiens, UniProt O43251-10, residues 100-194)
Technique: RNA Bind-n-Seq
Molecule type: RNA
Sample: in vitro
Tested at: 365 nM
Setting: natural RNA segment, single round, ends assumed
Baseline: no-protein control
Direction: higher = stronger binding
Endpoint: RBNS enrichment (R)
Shared flanks, not repeated: GGGAGUUCUACAGUCCGACGAUC … UGGAAUUCUCGGGUGCCAA
Residues (chain): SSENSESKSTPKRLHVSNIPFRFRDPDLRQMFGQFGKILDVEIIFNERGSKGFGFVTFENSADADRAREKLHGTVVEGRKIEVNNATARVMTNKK
AAGUUUUAAAAUAGCUUUAGUUUUUAAAGUAAACUGGAUUUGUGGACCUUAAAGUUACUGAGUUUAAACUACAAAUUGUAACAUCAUUACUGAACAUGUCCGCAUCAACC: 0.353
UGCGGGACAGUCAUUCUUUACGUUCUCUCUUGAGCUGGUGAGAGAGGAGGAAGAGGGAAGUCAAGAGCAACCUCCAAGGCCUAUGUCAGCCUCUUCUCCUUGGGUCUUGG: 0.754
AUAGCCAAGAGGGUCAUACAGCCCAGUGGUGUAGAGCAAGACACCAGGUAGCAGUAAUAGAAAACAACCUCACACCAUUUUCACAAUGGCCGCCCAUCCUCGGGGACUGU: 0.33
CAUUCCCAUUGGACUCAUGCACCUCCCGGAUGGUUUUUGUUUUUUUCGGGGGUUCUUUGGGGUUUGUUUGUUUGCUUCUUUUCCAGAGUGUGGAAAGUCUACAGUGCAGA: 3.09
AGUGGCAAAAAUCCCCUUUUUGUAAGCCCCCAUAGUCUAGAGGCAGUUUUCUUUUUAAGAAUCAUGCCAGAGCCUGAGUCGAGCAGUAUGCUUUCUUGGUUUUUGAGAGU: 0.335
GGCCUUUCCUGUACACGCCUGUGACUGGCAGCCACAUGGUUUCUGCUUAUUAACGUGAGCCUCCCUGUUGGUGAAAUGGUGUAGCUGGGAACGGACAGCAAAGGUGCAGG: 0.492
GGUUUUGUUAUCCUUCGGAAGAACCCCAAUUAUGAUCUCUAGUGACCACCAGGGGCUCUGAACUGCAGCUGAUGUUAUCAGCAGGCCAUGCAUCCUGCUGCCAAGGGUGG: 0.609
UGGGUAGAGCCGUGCCUCUUGGGCAGGCUCCCAUAGUGACCACGUCCCCACGAAUGGGAAAGCACGUUAGUGGGAGGGACGUAGGACACGUGUGGACCGCCAGGCCCUCU: 0.601

For quick reference, copied from above (study 1):
GACTCGCA: 0.0244
AACAGAAG: -0.0811
ATGCCATA: -0.141
CAGTACCA: -0.224
CCCCCTGC: 0.0362
